Literature values as cited in several papers.
Protocols differ between the studies behind these lines. Numbers after ± are the reported error.
CDK1: Cyclin-dependent kinase 1 (CDK1, Homo sapiens, UniProt P06493)

Sequences of proteins named here, by UniProt entry; tags and fusion partners are left off. Residues count along the entry.
UniProt P06493, whole entry: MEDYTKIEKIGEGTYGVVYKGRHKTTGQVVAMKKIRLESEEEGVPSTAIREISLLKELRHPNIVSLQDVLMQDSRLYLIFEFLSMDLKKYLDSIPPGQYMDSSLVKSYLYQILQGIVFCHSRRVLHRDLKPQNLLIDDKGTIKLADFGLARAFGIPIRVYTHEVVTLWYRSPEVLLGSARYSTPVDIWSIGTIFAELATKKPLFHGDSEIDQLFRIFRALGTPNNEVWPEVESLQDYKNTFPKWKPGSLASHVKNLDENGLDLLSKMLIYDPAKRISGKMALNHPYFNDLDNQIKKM
UniProt Q00960, 27-1482 limits assumed: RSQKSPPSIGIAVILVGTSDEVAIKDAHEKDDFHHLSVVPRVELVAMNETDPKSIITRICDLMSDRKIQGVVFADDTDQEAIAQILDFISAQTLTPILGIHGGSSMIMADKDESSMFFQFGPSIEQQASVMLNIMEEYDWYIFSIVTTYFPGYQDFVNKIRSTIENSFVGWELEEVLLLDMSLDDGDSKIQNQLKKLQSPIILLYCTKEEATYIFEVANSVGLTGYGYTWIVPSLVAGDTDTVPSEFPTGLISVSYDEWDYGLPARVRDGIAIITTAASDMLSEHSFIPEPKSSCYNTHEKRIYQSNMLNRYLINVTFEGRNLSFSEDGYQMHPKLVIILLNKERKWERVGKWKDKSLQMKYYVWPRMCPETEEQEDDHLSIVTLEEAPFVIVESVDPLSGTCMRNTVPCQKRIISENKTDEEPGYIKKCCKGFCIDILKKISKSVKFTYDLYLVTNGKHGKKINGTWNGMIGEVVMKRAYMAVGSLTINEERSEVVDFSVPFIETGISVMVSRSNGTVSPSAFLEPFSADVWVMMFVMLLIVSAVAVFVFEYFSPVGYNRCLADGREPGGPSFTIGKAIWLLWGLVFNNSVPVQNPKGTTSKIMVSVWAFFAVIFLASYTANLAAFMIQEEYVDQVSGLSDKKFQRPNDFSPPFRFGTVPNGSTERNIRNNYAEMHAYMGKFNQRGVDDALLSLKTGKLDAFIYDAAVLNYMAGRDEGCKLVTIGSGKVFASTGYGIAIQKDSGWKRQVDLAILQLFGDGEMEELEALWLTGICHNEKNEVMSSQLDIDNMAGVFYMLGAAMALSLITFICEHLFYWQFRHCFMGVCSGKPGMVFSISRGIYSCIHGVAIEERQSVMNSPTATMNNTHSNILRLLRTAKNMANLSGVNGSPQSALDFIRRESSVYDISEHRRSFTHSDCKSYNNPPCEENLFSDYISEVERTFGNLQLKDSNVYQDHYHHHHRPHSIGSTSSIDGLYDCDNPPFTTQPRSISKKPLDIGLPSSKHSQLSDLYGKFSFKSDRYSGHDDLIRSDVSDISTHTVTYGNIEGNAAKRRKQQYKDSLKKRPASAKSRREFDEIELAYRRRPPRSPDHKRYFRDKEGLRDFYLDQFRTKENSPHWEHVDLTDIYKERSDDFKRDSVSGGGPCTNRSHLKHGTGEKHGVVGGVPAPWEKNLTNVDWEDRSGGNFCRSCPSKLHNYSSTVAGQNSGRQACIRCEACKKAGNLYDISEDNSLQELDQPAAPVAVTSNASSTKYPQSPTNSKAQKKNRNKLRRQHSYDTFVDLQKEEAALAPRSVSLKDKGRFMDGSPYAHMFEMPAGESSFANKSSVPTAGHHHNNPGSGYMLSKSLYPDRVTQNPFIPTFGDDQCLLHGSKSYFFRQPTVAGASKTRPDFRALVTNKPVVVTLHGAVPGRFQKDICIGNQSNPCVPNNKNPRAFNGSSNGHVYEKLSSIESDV
UniProt O15151, whole entry: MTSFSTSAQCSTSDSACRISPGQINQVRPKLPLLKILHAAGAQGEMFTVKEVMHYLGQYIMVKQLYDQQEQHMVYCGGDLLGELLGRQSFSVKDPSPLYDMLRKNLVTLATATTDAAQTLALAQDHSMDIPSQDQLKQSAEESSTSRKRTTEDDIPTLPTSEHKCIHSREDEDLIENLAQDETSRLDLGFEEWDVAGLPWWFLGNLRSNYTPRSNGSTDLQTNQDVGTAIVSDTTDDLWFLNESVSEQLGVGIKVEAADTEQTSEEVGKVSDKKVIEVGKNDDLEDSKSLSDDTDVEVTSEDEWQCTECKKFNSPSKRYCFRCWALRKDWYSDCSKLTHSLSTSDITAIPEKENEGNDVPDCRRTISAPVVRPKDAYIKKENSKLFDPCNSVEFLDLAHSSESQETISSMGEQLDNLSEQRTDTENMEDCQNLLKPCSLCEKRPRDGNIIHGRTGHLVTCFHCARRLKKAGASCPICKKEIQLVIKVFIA
UniProt P29466, whole entry, looked up: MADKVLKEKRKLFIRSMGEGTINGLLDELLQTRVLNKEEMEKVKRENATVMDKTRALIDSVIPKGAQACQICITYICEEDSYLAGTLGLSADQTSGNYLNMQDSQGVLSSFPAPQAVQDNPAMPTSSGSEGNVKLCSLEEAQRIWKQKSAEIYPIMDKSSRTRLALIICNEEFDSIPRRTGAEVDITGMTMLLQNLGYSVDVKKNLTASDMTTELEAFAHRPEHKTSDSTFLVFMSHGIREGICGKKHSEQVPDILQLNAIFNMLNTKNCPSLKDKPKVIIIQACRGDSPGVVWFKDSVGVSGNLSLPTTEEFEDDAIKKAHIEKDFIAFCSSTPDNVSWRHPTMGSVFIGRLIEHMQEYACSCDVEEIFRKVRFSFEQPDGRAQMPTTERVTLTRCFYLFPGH
UniProt Q01727, whole entry: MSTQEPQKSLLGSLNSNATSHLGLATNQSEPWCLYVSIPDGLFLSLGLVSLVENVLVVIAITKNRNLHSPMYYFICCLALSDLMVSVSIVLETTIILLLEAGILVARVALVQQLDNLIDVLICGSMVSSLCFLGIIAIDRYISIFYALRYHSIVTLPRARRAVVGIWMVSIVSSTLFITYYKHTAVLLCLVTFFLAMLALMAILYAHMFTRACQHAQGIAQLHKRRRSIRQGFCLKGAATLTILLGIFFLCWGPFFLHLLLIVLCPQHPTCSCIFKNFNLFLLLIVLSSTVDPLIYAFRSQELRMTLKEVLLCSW
UniProt Q8WUI4, whole entry: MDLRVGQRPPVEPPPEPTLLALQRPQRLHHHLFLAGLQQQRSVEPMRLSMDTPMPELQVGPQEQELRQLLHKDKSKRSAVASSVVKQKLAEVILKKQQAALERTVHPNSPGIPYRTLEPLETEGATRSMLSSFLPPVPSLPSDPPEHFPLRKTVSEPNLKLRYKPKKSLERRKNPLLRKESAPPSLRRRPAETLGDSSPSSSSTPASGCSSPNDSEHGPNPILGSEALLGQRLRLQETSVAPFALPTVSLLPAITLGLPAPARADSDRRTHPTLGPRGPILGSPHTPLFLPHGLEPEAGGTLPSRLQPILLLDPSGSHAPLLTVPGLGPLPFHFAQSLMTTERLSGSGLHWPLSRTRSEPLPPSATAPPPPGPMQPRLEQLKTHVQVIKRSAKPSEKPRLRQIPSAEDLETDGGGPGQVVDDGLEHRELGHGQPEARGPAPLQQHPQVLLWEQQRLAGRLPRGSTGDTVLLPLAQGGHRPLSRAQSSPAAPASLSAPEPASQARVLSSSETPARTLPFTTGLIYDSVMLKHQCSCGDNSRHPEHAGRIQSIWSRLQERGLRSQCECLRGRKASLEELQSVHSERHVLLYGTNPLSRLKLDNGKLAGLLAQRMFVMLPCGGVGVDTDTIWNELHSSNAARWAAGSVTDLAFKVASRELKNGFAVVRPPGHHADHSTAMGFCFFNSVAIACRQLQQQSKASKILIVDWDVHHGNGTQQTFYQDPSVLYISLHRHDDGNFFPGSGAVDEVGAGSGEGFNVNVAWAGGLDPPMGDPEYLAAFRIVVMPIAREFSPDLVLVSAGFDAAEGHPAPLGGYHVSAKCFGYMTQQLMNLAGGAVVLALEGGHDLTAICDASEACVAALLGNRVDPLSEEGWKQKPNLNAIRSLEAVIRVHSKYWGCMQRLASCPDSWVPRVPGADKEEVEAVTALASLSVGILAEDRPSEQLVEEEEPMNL
UniProt Q92769, whole entry: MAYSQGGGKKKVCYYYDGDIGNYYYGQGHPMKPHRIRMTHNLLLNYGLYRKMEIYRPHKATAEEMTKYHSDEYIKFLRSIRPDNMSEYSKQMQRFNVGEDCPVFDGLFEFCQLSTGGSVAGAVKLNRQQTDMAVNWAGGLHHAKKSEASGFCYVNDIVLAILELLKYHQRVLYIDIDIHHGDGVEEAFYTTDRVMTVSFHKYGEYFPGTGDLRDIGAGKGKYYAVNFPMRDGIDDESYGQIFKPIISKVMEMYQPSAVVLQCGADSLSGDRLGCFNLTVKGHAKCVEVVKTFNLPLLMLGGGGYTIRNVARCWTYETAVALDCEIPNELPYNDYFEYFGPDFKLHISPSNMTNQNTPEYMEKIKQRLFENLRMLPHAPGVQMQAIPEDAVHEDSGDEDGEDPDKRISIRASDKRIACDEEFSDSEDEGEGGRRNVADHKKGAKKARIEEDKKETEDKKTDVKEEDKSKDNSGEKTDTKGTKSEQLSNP
UniProt Q8TDS5, whole entry: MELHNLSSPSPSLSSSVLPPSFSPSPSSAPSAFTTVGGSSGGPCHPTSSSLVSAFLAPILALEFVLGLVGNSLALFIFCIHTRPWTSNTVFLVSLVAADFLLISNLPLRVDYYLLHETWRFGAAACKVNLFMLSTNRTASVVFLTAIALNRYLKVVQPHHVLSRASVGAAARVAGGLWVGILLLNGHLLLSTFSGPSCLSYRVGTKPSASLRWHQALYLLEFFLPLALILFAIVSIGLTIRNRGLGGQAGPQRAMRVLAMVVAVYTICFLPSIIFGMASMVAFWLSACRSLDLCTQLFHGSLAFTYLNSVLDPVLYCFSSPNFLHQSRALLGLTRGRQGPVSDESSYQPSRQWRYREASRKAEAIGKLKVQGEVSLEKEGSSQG
UniProt P20248, whole entry partner: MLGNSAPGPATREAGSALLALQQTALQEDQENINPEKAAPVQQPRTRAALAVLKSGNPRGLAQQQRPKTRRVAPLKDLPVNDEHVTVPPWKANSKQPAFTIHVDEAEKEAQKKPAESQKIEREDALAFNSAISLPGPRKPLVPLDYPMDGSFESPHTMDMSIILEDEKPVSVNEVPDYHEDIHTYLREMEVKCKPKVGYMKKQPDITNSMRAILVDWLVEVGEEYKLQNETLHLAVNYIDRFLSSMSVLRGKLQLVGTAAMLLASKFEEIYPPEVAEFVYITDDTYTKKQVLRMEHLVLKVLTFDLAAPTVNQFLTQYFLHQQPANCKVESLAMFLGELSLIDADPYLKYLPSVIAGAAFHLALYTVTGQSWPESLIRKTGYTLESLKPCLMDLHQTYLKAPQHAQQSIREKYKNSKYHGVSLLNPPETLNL

`CCC(C)NC(=O)CSc1nnc(Nc2ccc(C(C)C)cc2)s1` (centres unmarked) gave a logD of 2.95 (pH 7.4).
`CNC1=NC(=O)/C(=C/c2ccc3ncccc3c2)S1` has an IC50 of 270 nM (CDK1; kinase activity, inhibitor).
The IC50 of `O=C(O)c1cc([C@H]2CCN[C@@H]2C(=O)O)ccc1Cl` is reported as 10000 nM (Glutamate receptor ionotropic, NMDA 2B, with GluN1 (Grin2b, Rattus norvegicus, UniProt Q00960); ion current, antagonist, two-electrode voltage clamp; GluN1/GluN2B).
`O=C(O)c1cc([C@H]2CCN[C@@H]2C(=O)O)ccc1O` gave an IC50 of 2000 nM (AMPA receptor, rat; binding; rat synaptosomes; together with: [3H]AMPA).
For `CCC[C@@H]1CN[C@H](C(=O)O)[C@H]1c1cccc(C(=O)O)c1`, the IC50 was 48000 nM (AMPA receptor (rat); binding, radioligand binding; rat synaptosomes; together with: [3H]AMPA).
For `O=C1Cc2c([nH]c3ccc(Br)cc23)-c2ccccc2N1CC1CCCCC1`, the IC50 was 17000 nM (CDK1; kinase activity, inhibitor).
The IC50 of `CC(=O)N[C@@H](CCCCN)C(=O)N[C@H](C(=O)N[C@@H](Cc1ccccc1)C(=O)N[C@@H](C)C(=O)N[C@@H](CCC(=O)O)C(=O)N[C@@H](Cc1ccc(O)cc1)C(=O)N[C@@H](Cc1c[nH]c2ccccc12)C(=O)N[C@@H](C)CNC(=O)N[C@@H](C)CNC(=O)N[C@H](CNC(N)=O)C(C)C)[C@@H](C)O` is reported as 23.8 ± 0.9 nM (Protein Mdm4, with p53 (MDM4, Homo sapiens, UniProt O15151)).
With `c1ccc(CCN2CCN(c3cc(N4CCCC4)nc(N4CCCC4)n3)CC2)cc1` the IC50 was 31 ± 10 nM (Caspase-1 (CASP1, Homo sapiens, UniProt P29466); inhibitor; 30 min).
With `CC(C)[C@H](NC(=O)[C@@H]1CCCN1C(=O)[C@H](CCCNC(=N)N)NC(=O)[C@H](CS)NC(=O)[C@H](Cc1c[nH]c2ccccc12)NC(=O)[C@H](CCCNC(=N)N)NC(=O)[C@@H](Cc1ccccc1)NC(=O)[C@H](Cc1cnc[nH]1)NC(=O)[C@H](CCC(=O)O)NC(=O)[C@H](CS)NC(=O)[C@H](CS)NC(=O)[C@H](CCCCN)NC(=O)[C@@H]1CC(=O)N[C@@H](CCCNC(=N)N)C(=O)N[C@@H]([C@@H](C)O)C(=O)N[C@@H](CC(=O)O)C(=O)N[C@H](Cc2ccc(O)cc2)C(=O)N1)C(N)=O` the IC50 was 0.7 nM (Mc1r (Mus musculus, UniProt Q01727); binding; B16/F1).
For `Cc1ccc([C@H]2CCN[C@@H]2C(=O)O)cc1C(=O)O`, the IC50 was greater than 100000 nM (kainate receptor (rat); binding, radioligand binding; rat synaptosomes; together with: [3H]kainate).
`CC(=O)N[C@@H](CC(C)C)C(=O)NCC(=O)N[C@@H](CCCCNC(=O)C(F)(F)F)C(=O)Nc1ccc2c(C)cc(=O)oc2c1` gave a Km of 19.8 µM (HDAC7 (Homo sapiens, UniProt Q8WUI4); substrate).
With `CC(=O)Nc1ncc(SCc2ncc(C(C)(C)C)o2)s1` the IC50 was 40 nM (CDK1; kinase activity, inhibitor).
For `CC(=O)NCCCC[C@H](NC(=O)CNC(=O)[C@H](CC(C)C)NC(C)=O)C(=O)Nc1ccc2c(C)cc(=O)oc2c1`, the Km was 6.1 µM (HDAC2 (Homo sapiens, UniProt Q92769); substrate).
The IC50 of `C/C=C/Cn1c(Cc2cc(OC)c(OC)c(OC)c2)nc2c(N)ncnc21` is reported as 18600 ± 300 nM (Hsp90α; binding, fluorescence polarization competition).
`O=C(O)c1cc(O)cc([C@H]2CCN[C@@H]2C(=O)O)c1` gave an IC50 of 6300 nM (AMPA receptor (rat); binding, radioligand binding; rat synaptosomes; together with: [3H]AMPA).
The IC50 of `CC(O)CCCCc1c(C(=O)CC(C)CC(=O)O)c2cc(Cl)ccc2n1C` (racemic) is reported as 1400 nM (OXER1 (Homo sapiens, UniProt Q8TDS5); antagonist).
`COCCN1CCN(CCc2cnc(Nc3cc(-c4cc(F)c5nc(C)n(C(C)C)c5c4)ncn3)cn2)CC1` gave an IC50 of 140 nM (CDK1; kinase activity, inhibitor).
For `CCOC(=O)c1c(C)oc2cc(OC)c(OCc3oc4cc(OC)c(OS(=O)(=O)O)cc4c3C(=O)OCC)cc12`, the IC50 was 6200 ± 2700 nM (Prothrombin (F2, Homo sapiens, UniProt P00734); enzyme activity, inhibitor).
`CC(C)(C)c1cnc(CSc2cnc(NC(=O)Cc3cccnc3)s2)o1` has an IC50 of 80 nM (CDK1; kinase activity, inhibitor).
With `Cc1cc(-c2c(C)noc2C)ccc1S(=O)(=O)CC1CCCC1` the IC50 was 500 nM (Bromodomain-containing protein 4, BD1 (BRD4, Homo sapiens, UniProt O60885); inhibitor; 1).

Some of these lines once more:
With `CC(=O)Nc1ncc(SCc2ncc(C(C)(C)C)o2)s1` the IC50 was 40 nM (CDK1; kinase activity, inhibitor).
For `CC(=O)NCCCC[C@H](NC(=O)CNC(=O)[C@H](CC(C)C)NC(C)=O)C(=O)Nc1ccc2c(C)cc(=O)oc2c1`, the Km was 6.1 µM (HDAC2 (Homo sapiens, UniProt Q92769); substrate).
